Experimental data from different studies.
Numbered parts are unrelated; each lists some results of a single study. Values joined by “and” are separate records of one study, mostly repeats; a detail may differ.

Block 1
SMILES: CCN1/C(=C/C=C2\CCCC(/C=C/C3=[N+](CC)c4ccccc4C3(C)C)=C2NCCCCCCCCN2CCC(Nc3nc4ccccc4n3Cc3ccc(F)cc3)CC2)C(C)(C)c2ccccc21
Cell line: U-87 MG
Concentration: concentration not given
Baseline: DMSO
test	log2 fold change
refers to: NR3C2 mRNA	1.39
refers to: POC1A mRNA	-1.07
refers to: ELL2 mRNA	0.909
refers to: TSPAN15 mRNA	-2.5
refers to: H2AC6 mRNA	1.69
refers to: GAB2 mRNA	1.65
refers to: FERMT1 mRNA	-1.06
refers to: H2AZ1 mRNA	-1.22
refers to: ADGRG1 mRNA	-0.99
refers to: SPHK1 mRNA	0.899
refers to: IFRD1 mRNA	1.41

Block 2
Structure (SMILES): C[C@@H]1CN(c2ccc(-c3cc(C(=O)NCCOCCOCCOCCOCCNC(=O)/C=C/c4[nH]cc(C(=O)N[C@@H](CC(N)=O)c5ccc(F)c(Cl)c5)c4-c4ccc(Cl)cc4F)ccc3F)cc2NC(=O)c2c[nH]c(=O)cc2C(F)(F)F)C[C@H](C)N1C
Read-out: thermal unfolding
Method: differential scanning fluorimetry
Concentration: 5.5 µM
Reading: higher = more unfolded
DCAF1: DDB1- and CUL4-associated factor 1 (DCAF1, Homo sapiens, UniProt Q9Y4B6)
Chain of UniProt Q9Y4B6 (whole entry, looked up): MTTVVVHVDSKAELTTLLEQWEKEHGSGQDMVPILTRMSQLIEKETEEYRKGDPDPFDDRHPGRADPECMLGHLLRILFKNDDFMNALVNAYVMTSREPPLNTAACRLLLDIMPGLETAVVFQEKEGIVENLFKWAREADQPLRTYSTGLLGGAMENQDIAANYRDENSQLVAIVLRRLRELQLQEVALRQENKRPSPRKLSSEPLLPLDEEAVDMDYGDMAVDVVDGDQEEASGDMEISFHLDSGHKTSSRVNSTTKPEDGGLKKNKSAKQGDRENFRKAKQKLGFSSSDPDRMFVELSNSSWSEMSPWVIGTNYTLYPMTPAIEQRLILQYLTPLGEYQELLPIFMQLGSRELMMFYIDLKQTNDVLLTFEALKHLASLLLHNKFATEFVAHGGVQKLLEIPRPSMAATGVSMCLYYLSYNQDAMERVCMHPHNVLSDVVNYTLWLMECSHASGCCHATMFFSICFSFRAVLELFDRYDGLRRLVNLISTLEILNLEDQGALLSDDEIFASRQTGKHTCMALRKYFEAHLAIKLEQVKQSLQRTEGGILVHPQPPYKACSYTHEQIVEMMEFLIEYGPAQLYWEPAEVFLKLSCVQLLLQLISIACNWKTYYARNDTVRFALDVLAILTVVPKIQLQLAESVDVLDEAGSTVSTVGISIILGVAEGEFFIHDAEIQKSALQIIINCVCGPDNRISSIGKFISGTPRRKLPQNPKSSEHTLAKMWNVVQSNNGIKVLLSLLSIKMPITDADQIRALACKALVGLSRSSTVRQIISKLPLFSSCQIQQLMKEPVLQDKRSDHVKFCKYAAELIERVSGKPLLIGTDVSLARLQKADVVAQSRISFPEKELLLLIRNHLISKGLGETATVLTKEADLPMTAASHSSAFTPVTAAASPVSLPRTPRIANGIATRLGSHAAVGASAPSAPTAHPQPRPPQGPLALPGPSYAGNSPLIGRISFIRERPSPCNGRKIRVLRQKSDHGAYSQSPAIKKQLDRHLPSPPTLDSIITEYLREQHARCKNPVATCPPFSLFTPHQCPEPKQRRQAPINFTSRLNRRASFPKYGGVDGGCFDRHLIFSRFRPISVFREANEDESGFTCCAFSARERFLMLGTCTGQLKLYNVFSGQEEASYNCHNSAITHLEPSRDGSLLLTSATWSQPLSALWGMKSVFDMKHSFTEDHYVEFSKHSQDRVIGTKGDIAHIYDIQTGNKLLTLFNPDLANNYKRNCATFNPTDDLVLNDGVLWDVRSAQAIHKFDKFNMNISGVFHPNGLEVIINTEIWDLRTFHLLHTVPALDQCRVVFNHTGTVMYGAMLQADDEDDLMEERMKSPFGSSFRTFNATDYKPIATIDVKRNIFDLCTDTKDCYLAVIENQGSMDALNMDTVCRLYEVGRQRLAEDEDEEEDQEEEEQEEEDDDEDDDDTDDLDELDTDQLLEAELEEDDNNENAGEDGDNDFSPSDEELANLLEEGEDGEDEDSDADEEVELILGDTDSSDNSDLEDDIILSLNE
WDR5: WD repeat-containing protein 5 (WDR5, Homo sapiens, UniProt P61964)
target	setting	SYPRO Orange fluorescence [a.u.]
DCAF1	57.81 °C	30500
WDR5	90.21 °C	50900
DCAF1	38 °C	10900
WDR5	37.4 °C	13800
WDR5	81.61 °C	45000
DCAF1	54.41 °C	20300
WDR5	25.2 °C	12800
DCAF1	85.81 °C	39300

Block 3
Target: Membrane-associated tyrosine- and threonine-specific cdc2-inhibitory kinase (PKMYT1, Homo sapiens, UniProt Q99640)
Action: degrader
Method: automated immunoblot (Jess)
Cell line: HCC1569
Time: 24 h
Target sequence (Q99640 1-499): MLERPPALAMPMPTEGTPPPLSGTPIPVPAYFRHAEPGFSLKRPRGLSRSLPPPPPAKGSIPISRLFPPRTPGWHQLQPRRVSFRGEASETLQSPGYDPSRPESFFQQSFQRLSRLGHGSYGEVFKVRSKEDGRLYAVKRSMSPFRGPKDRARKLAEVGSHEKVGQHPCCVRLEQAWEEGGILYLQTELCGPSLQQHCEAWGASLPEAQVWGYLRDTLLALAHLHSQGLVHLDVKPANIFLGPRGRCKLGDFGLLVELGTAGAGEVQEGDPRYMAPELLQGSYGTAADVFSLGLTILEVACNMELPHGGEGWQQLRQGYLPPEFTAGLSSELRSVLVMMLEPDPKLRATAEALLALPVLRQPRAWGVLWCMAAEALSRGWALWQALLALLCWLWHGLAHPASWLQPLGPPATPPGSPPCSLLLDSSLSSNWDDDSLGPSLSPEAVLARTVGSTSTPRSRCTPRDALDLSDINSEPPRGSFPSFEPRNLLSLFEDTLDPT
SMILES	DC50
Cc1ccc(O)c(C)c1-c1cnc2[nH]c(-c3cnc(N4CCC(CN5CCN(c6c(F)cc(NC7CCC(=O)NC7=O)cc6F)CC5)CC4)nc3)cc2c1C#N (racemic)	0.3 nM
Cc1ccc(O)c(C)c1-c1cnc2[nH]c(-c3cnc(N4CCC(CN5CCN(c6cc7c(cc6F)n(C6CCC(=O)NC6=O)c(=O)n7C)CC5)CC4)nc3)cc2c1C#N (centres unmarked)	< 0.1 nM
Cc1ccc(O)c(C)c1-c1cnc2[nH]c(-c3cnc(N4CCC5(CC4)CC(CN4CCN(c6ccc(NC7CCC(=O)NC7=O)cc6F)CC4)C5)nc3)cc2c1C#N (centres unmarked)	0.6 nM
Cc1ccc(O)c(C)c1-c1cnc2[nH]c(-c3cnc(N4CCC(CN5CCC(c6ccc(NC7CCC(=O)NC7=O)cc6F)CC5)CC4)nc3)cc2c1C#N (centres unmarked)	0.5 nM
Cc1ccc(O)c(C)c1-c1cnc2[nH]c(-c3cnc(N4CCC5(CC4)CC(N4CCN(c6ccc(NC7CCC(=O)NC7=O)cc6F)CC4)CO5)nc3)cc2c1C#N (centres unmarked)	0.3 nM
Cc1ccc(O)c(C)c1-c1cnc2[nH]c(-c3cnc(N4CCC(CN5CCN(c6ccc7c(c6)CN(C6CCC(=O)NC6=O)C7=O)CC5)CC4)nc3)cc2c1C#N (centres unmarked)	0.2 nM

Block 4
Compound: Cc1ncsc1-c1ccc(C(CO)NC(=O)C2CC(O)CN2C(=O)C(C(C)C)n2cc(-c3ccc(COc4c(-c5c(C)c(F)cc6[nH]ncc56)c(C5CC5)cc5c(N6CC7CC6CN7)nc(OC6CCOCC6)nc45)cc3)nn2)cc1 (centres unmarked)
test system	setting	tumour volume
GP2d xenograft, mouse	30 mg/kg twice weekly, day 7	177 mm3 and 129 mm3 and 139 mm3 and 100 mm3 and 155 mm3
KP-4 xenograft, mouse	30 mg/kg twice weekly, day 0	192 mm3 and 243 mm3 and 221 mm3 and 176 mm3 and 209 mm3
mouse, PK-59 xenograft	1 mg/kg, day 14	828 mm3 and 913 mm3 and 821 mm3 and 892 mm3 and 991 mm3
mouse, PK-59 xenograft	1 mg/kg, day 10	694 mm3 and 704 mm3 and 813 mm3 and 581 mm3 and 668 mm3
HPAC xenograft, mouse	30 mg/kg twice weekly, day 14	198 mm3 and 339 mm3 and 242 mm3 and 214 mm3 and 180 mm3
mouse, PK-59 xenograft	3 mg/kg, day 4	327 mm3 and 383 mm3 and 341 mm3 and 435 mm3 and 466 mm3
mouse, PK-59 xenograft	10 mg/kg, day 4	321 mm3 and 371 mm3 and 373 mm3 and 282 mm3 and 372 mm3

Repeated from above (block 1):
test	log2 fold change
refers to: FERMT1 mRNA	-1.06
refers to: H2AZ1 mRNA	-1.22
refers to: ADGRG1 mRNA	-0.99
refers to: SPHK1 mRNA	0.899
refers to: IFRD1 mRNA	1.41
